Results from different studies.
± gives the spread as reported.

technique	matrix	temperature	notes	pKa	Compound
pH titration	–	–	conjugate acid of ligand	4.3	COc1ccc2cc(-c3ccc(-c4ccc(C)cn4)nc3)oc2c1
potentiometric titration	0.15 M KCl	–	Yasuda-Shedlovsky extrapolation	2.87	O=c1[nH]c(-c2nc3ccccc3s2)no1
potentiometric titration	methanol-water 1:4, NaCl 150 mM	–	terminal amine	7.3	CC(C)C[C@H](NC(=O)[C@H](CCC1CCCCC1)NC(=O)[C@@H]1CCCN1C(=O)c1ccc(F)cc1)C(=O)NC(C)(C)C(=O)N[C@@H](CC(C)C)C(=O)N[C@@H](CC(C)C)C(=O)NC(C)(C)C(=O)NC(C)(C)C(=O)NCCC(=O)NCCN(C)C
–	–	–	–	10.6	CC(=O)Nc1ncc(CN2CC[C@H](Oc3cccc(F)n3)C[C@@H]2C)s1
experimental	–	–	–	4.48 ± 0.06	C#CCN1CCN(C(=O)c2cc(Cc3n[nH]c(=O)c4ccccc34)ccc2F)CC1
potentiometric titration	67% methanol in water	–	–	4.31	Cc1ccccc1-c1cc(N2CCCCC2)ccc1N(C)C(=O)C(C)(C)c1cc(C(F)(F)F)cc(C(F)(F)F)c1
potentiometric titration	hydroxypyridinone group	–	pKa4	8.84	Br.Br.Br.O=c1c(O)cccn1CCN1CCN(CCn2cccc(O)c2=O)CCN(CCn2cccc(O)c2=O)CC1
spectrophotometry	water	–	–	6	O=c1c(-c2ccccc2)c[nH]n1-c1ccccn1
potentiometric titration	methanol-water 1:4, NaCl 150 mM	–	terminal amine	5.2	CC(C)C[C@H](NC(=O)[C@H](CCC1CCCCC1)NC(=O)[C@@H]1CCCN1C(=O)c1ccc(F)cc1)C(=O)NC(C)(C)C(=O)N[C@@H](CC(C)C)C(=O)N[C@@H](CC(C)C)C(=O)NC(C)(C)C(=O)NC(C)(C)C(=O)NCCC(=O)NCCN1CCOCC1
potentiometric titration	0.15 M KCl	–	Yasuda-Shedlovsky extrapolation	4.04	O=c1[nH]c(-c2nc3ccccc3[nH]2)no1
potentiometric titration	67% methanol in water	–	–	< 3	Cc1ccccc1-c1cc(N2CCOCC2)ccc1N(C)C(=O)C(C)(C)c1cc(C(F)(F)F)cc(C(F)(F)F)c1
13C chemical shift titration	–	25 °C	–	6.24 ± 0.03	O=C(NC1CCCCN=CC1=O)OCc1ccccc1 (centres unmarked)
potentiometric titration	–	–	first pKa	11.38 ± 0.08	CCCC[C@H](NC(=O)[C@H](CC(C)C)N(C)C(=O)CNC(=O)[C@@H](NC(=O)[C@H](Cc1ccccc1)NC(=O)[C@H](CCCCN)NC(=O)[C@@H](N)CC(=O)O)C(C)C)C(N)=O
pH titration	–	–	conjugate acid of ligand	4.5	COc1ccc(/C=C/c2ccc(-c3ccc(C)cn3)nc2)cc1
NMR pD titration	–	–	–	9.6 ± 0.02	CC1=C2[O][Ru-]([Cl])[O+]=C2C=CN1CCCCCCN1C=CC2=[O+][Ru-]([Cl])[O]C2=C1C.Cc1ccc(C(C)C)cc1.Cc1ccc(C(C)C)cc1
spectrophotometry	potassium phosphate 10 mM, KCl 200 mM	298 K	–	9	Cc1nc(N(C)C)nc(C)c1O
NMR pD titration	–	–	–	9.83 ± 0.06	CC1=C2[O][Ru-]([Cl])[O+]=C2C=CN1CCCCCCCCCCCCN1C=CC2=[O+][Ru-]([Cl])[O]C2=C1C.Cc1ccc(C(C)C)cc1.Cc1ccc(C(C)C)cc1
potentiometric or spectrophotometric titration	–	–	ionic strength 0.1	9.09	O=S(=O)([O-])CCCSCCCN(CCCSCCCS(=O)(=O)[O-])CCCSCCCS(=O)(=O)[O-].[Na+].[Na+].[Na+]
potentiometric titration	67% methanol in water	–	–	< 3	CCC(=O)N1CCN(c2ccc(N(C)C(=O)C(C)(C)c3cc(C(F)(F)F)cc(C(F)(F)F)c3)c(-c3ccccc3C)c2)CC1
potentiometric titration	0.15 M KCl	–	Yasuda-Shedlovsky extrapolation	4.5	O=c1[nH]c(-c2nsc3ccccc23)no1

Repeated from above:
technique	matrix	temperature	notes	pKa	Compound
potentiometric or spectrophotometric titration	–	–	ionic strength 0.1	9.09	O=S(=O)([O-])CCCSCCCN(CCCSCCCS(=O)(=O)[O-])CCCSCCCS(=O)(=O)[O-].[Na+].[Na+].[Na+]
potentiometric titration	67% methanol in water	–	–	< 3	CCC(=O)N1CCN(c2ccc(N(C)C(=O)C(C)(C)c3cc(C(F)(F)F)cc(C(F)(F)F)c3)c(-c3ccccc3C)c2)CC1
